Measured values collected from several papers.
Values joined by “and” are separate records of one study, mostly repeats; a detail may differ. Numbers after ± are the reported error.
B1: human MSRB3; sequence looked up; chain GSCRDKKNCKVVFSQQELRKRLTPLQYHVTQEKGTESAFEGEYTHHKDPGIYKCVVCGTPLFKSETKFDSGSGWPSFHDVINSEAITFTDDFSYGMHRVETSCSQCGAHLGHIFDDGPRPTGKRYCINSAALSFTPADSSGTAEGGSGVASPAQADKAEL
B2: adiponectin; sequence looked up; chain ETTTQGPGVLLPLPKGACTGWMAGIPGHPGHNGAPGRDGRDGTPGEKGEKGDPGLIGPKGDIGETGVPGAEGPRGFPGIQGRKGEPGEGAYVYRSAFSVGLETYVTIPNMPIRFTKIFYNQQNHYDGSTGKFHCNIPGLYYFAYHITVYMKDVKVSLFKKDKAMLFTYDQYQENNVDQASGSVLLHLEVGDQVWLQVYGEGERNGLYADNDNDSTFTGFLLYHDTN

Substance | target or system | assay | test system | conditions | scale | endpoint | result
epoetin alfa | UT7/EPO | microarray, measured: CISH mRNA (probe set 223377_x_at) |  | 5 U/mL, 90 min | baseline: vehicle | mRNA level | 6.5 fold
YEQDPWGVKWWY | mouse bone marrow-derived macrophages | qPCR, measured: Fizz1 | peptide | concentration not given, together with: IL-4 |  | mRNA level | decreased
Pam2CSK4 | BV-2 | RT-qPCR, measured: Msr1 |  | concentration not given, unit not given | baseline: untreated | mRNA level | 2.76 and 3.23 and 2.7
B1 (human MSRB3) | CYB5R4 knockout human cells | PP6 interaction, 3xFLAG-PP6C IP-MS |  | concentration not given | baseline: CYB5R4 KO over parental | log2 fold change | -1.68
monocyte chemoattractant protein-1 | THP-1 monocytes | real-time RT-PCR, measured: IL8, IL1B and TNFA |  | 50 ng/mL, 24 h |  | mRNA level | increased
Peginesatide | UT7/EPO | RT-qPCR, measured: OSM |  | concentration not given, 90 min, normalized to HPRT1 | baseline: vehicle | mRNA level | 100 fold
recombinant human interleukin-1 beta | enteroid monolayers | measured: ABCG2 |  | 1 ng/mL, 48 h |  | mRNA level | decreased
human glutamate dehydrogenase 2 | PP6C (human) | co-immunoprecipitation, IP-MS | CYB5R4 knockout cells | concentration not given | baseline: CYB5R4 knockout over parental | log2 fold change | -1.48
B2 (adiponectin) | HUVEC | real-time PCR, measured: CXCL11 |  | 15 µg/mL, 24 h, unit not given, together with: TNF-α and IFN-γ | baseline: stimulated untreated | mRNA level | 0.94 ± 0.13
recombinant human interleukin-6 | enteroid monolayers | measured: ABCG2 |  | 1 ng/mL, 48 h |  | mRNA level | decreased

Repeated from above:
Substance | target or system | assay | test system | conditions | scale | endpoint | result
B2 (adiponectin) | HUVEC | real-time PCR, measured: CXCL11 |  | 15 µg/mL, 24 h, unit not given, together with: TNF-α and IFN-γ | baseline: stimulated untreated | mRNA level | 0.94 ± 0.13
